{"data": "Measurements pooled from the literature", "CXCR4": "C-X-C chemokine receptor type 4 (CXCR4, Homo sapiens, UniProt P61073)", "note": "Protocols differ between the studies behind these lines. Numbers after ± are the reported error."}
{"SMILES": "N=C(N)NCCC[C@@H]1NC(=O)[C@H](CCCCNC(=O)CC[C@H](NC(=O)CC[C@H](NC(=O)CN2CCN(CC(=O)O)CCN(CC(=O)O)CCN(CC(=O)O)CC2)C(=O)N[C@@H](CCC(=O)NCCCC[C@@H]2NC(=O)[C@@H](Cc3ccccc3)NC(=O)[C@H](CC(=O)O)NC(=O)CNC(=O)[C@H](CCCNC(=N)N)NC2=O)C(=O)NCCCC[C@@H]2NC(=O)[C@@H](Cc3ccccc3)NC(=O)[C@H](CC(=O)O)NC(=O)CNC(=O)[C@H](CCCNC(=N)N)NC2=O)C(=O)NCCCC[C@@H]2NC(=O)[C@@H](Cc3ccccc3)NC(=O)[C@H](CC(=O)O)NC(=O)CNC(=O)[C@H](CCCNC(=N)N)NC2=O)NC(=O)[C@@H](Cc2ccccc2)NC(=O)[C@H](CC(=O)O)NC(=O)CNC1=O [indium-111 labelled]", "system": "female athymic nu/nu mice, spleen", "conditions": "intravenous, 111 kBq, 0.5 h", "quantity": "tissue uptake", "value": "2.65 ± 1.36 %ID/g"}
{"SMILES": "CC(C)C[C@H](NC(=O)[C@@H](CCCCNC(=O)CCCCCNC(=O)CN1CCN(CC(=O)O)CCN(CC(=O)O)CCN(CC(=O)O)CC1)NC(=O)[C@H](Cc1ccc(O)cc1)NC(=O)[C@H](CO)NC(=O)[C@H](Cc1c[nH]c2ccccc12)NC(=O)[C@H](Cc1cnc[nH]1)NC(=O)[C@@H]1CCC(=O)N1)C(=O)N[C@@H](CCCNC(=N)N)C(=O)N1CCC[C@H]1C(=O)NCC(N)=O [indium-111 labelled]", "system": "female athymic nude mouse, liver", "conditions": "intravenous, 0.037 MBq, 24 h", "quantity": "tissue uptake", "value": "0.59 ± 0.16 %ID/g"}
{"SMILES": "[64Cu+2].c1cnc(CNCc2ccc(CN3CCCN4CCNCCCN(CC4)CC3)cc2)nc1", "tested on": "CXCR4", "system": "NOD/SCID mice, U87 xenografts, U87-stb-CXCR4 tumour", "conditions": "60 min post-injection", "quantity": "tissue uptake", "value": "29.3 ± 3.81 %ID/g"}
{"SMILES": "CCCC[C@H](NC(=O)CNC(=O)CNC(=O)CN1CCN(CC(=O)O)CCN(CC(=O)O)CC1)C(=O)N[C@H]1CC(=O)NCCCC[C@@H](C(N)=O)NC(=O)[C@H](Cc2c[nH]c3ccccc23)NC(=O)[C@H](CCCNC(=N)N)NC(=O)[C@@H](Cc2ccccc2)NC(=O)[C@H](Cc2c[nH]cn2)NC1=O [technetium-99m labelled]", "system": "C57 mouse, liver", "conditions": "iv, 0.037 MBq, 0.5 h", "quantity": "tissue uptake", "value": "2.32 ± 0.2 %ID/g"}
{"SMILES": "CCCC[C@H](NC(=O)CNC(=O)CNC(=O)CN1CCN(CC(=O)O)CCN(CC(=O)O)CCN(CC(=O)O)CC1)C(=O)N[C@H]1CC(=O)NCCCC[C@@H](C(N)=O)NC(=O)[C@H](Cc2c[nH]c3ccccc23)NC(=O)[C@H](CCCNC(=N)N)NC(=O)[C@@H](Cc2ccccc2)NC(=O)[C@H](Cc2c[nH]cn2)NC1=O [lutetium-177 labelled]", "system": "C57 mouse, female, spleen", "conditions": "intravenous, 0.037 MBq, 4 h", "quantity": "tissue uptake", "value": "0.32 ± 0.11 %ID/g"}
{"SMILES": "CCCC[C@H](NC(=O)CCCCCCCNC(=O)CN1CCN(CC(=O)O)CCN(CC(=O)O)CC1)C(=O)N[C@H]1CC(=O)NCCCC[C@@H](C(N)=O)NC(=O)[C@H](Cc2c[nH]c3ccccc23)NC(=O)[C@H](CCCNC(=N)N)NC(=O)[C@@H](Cc2ccccc2)NC(=O)[C@H](Cc2c[nH]cn2)NC1=O [copper-64 labelled]", "system": "C57 mice, muscle", "conditions": "intravenous, 0.37 MBq, 24 h", "quantity": "tissue uptake", "value": "0.08 ± 0.02 %ID/g"}
{"SMILES": "CC[C@H](C)[C@H](NC(=O)[C@H](Cc1c[nH]cn1)NC(=O)[C@H](CCCNC(=N)N)NC(=O)[C@H](CCCNC(=N)N)NC(=O)[C@H](CCCNC(=N)N)NC(C)=O)C(=O)N[C@H](C(=O)N[C@@H](CCCNC(=N)N)C(=O)N[C@@H](CCCCN)C(=O)N[C@@H](CCCNC(=N)N)C(=O)N[C@H](C(=O)N[C@@H](CC(C)C)C(=O)N[C@@H](CCCNC(=N)N)C(=O)N[C@@H](CCCNC(=N)N)C(=O)N[C@@H](CC(C)C)C(=O)N[C@@H](CC(C)C)C(=O)N[C@@H](CCC(N)=O)C(N)=O)[C@@H](C)O)C(C)C", "system": "PC/PIP2 99:1 vesicles", "quantity": "molar partition coefficient", "value": "60000 M⁻¹"}
{"SMILES": "N=C(N)NCCC[C@@H]1NC(=O)[C@H](CCCCNC(=O)CNC(=O)CNC(=O)CNC(=O)CC[C@H](NC(=O)CNC(=O)CNC(=O)CNC(=O)CC[C@H](NC(=O)CN2CCN(CC(=O)O)CCN(CC(=O)O)CCN(CC(=O)O)CC2)C(=O)NCC(=O)NCC(=O)NCC(=O)N[C@@H](CCC(=O)NCC(=O)NCC(=O)NCC(=O)NCCCC[C@@H]2NC(=O)[C@@H](Cc3ccccc3)NC(=O)[C@H](CC(=O)O)NC(=O)CNC(=O)[C@H](CCCNC(=N)N)NC2=O)C(=O)NCC(=O)NCC(=O)NCC(=O)NCCCC[C@@H]2NC(=O)[C@@H](Cc3ccccc3)NC(=O)[C@H](CC(=O)O)NC(=O)CNC(=O)[C@H](CCCNC(=N)N)NC2=O)C(=O)NCC(=O)NCC(=O)NCC(=O)NCCCC[C@@H]2NC(=O)[C@@H](Cc3ccccc3)NC(=O)[C@H](CC(=O)O)NC(=O)CNC(=O)[C@H](CCCNC(=N)N)NC2=O)NC(=O)[C@@H](Cc2ccccc2)NC(=O)[C@H](CC(=O)O)NC(=O)CNC1=O [indium-111 labelled]", "system": "female athymic nu/nu mice, liver", "conditions": "intravenous, 0.5 h", "quantity": "tissue uptake", "value": "3.04 ± 1.38 %ID/g"}
{"SMILES": "CCCC[C@H](NC(=O)COCCOCCNC(=O)CN1CCN(CC(=O)O)CCN(CC(=O)O)CC1)C(=O)N[C@H]1CC(=O)NCCCC[C@@H](C(N)=O)NC(=O)[C@H](Cc2c[nH]c3ccccc23)NC(=O)[C@H](CCCNC(=N)N)NC(=O)[C@@H](Cc2ccccc2)NC(=O)[C@H](Cc2c[nH]cn2)NC1=O [copper-64 labelled]", "system": "C57 mice, lung", "conditions": "intravenous, 0.37 MBq, 2 h", "quantity": "tissue uptake", "value": "0.7 ± 0.04 %ID/g"}
{"SMILES": "Cc1cc(-c2ccc(NC(=O)[C@H](CCCCNC(=O)CCOCCOCCC(=O)N[C@H](Cc3ccccc3)C(=O)N[C@H]3CSSC[C@@H](C(=O)N[C@H](C(=O)O)[C@@H](C)O)NC(=O)[C@H]([C@@H](C)O)NC(=O)[C@H](CCCCN)NC(=O)[C@@H](Cc4c[nH]c5ccccc45)NC(=O)[C@H](Cc4ccc(O)cc4)NC3=O)NC(=O)CN3CCN(CC(=O)O)CCN(CC(=O)O)CCN(CC(=O)O)CC3)c(C)c2)ccc1N=Nc1ccc2c(S(=O)(=O)O)cc(S(=O)(=O)O)c(N)c2c1O [lutetium-177 labelled]", "system": "human metastatic neuroendocrine tumour", "conditions": "dose not given", "quantity": "grade 1 abdominal pain incidence", "value": "17%"}
{"SMILES": "CC(C)C[C@H](NC(=O)[C@H](Cc1ccc(O)cc1)NC(=O)[C@@H](CCCNC(=N)N)NC(=O)[C@@H](CO)NC(=O)[C@H](Cc1ccccc1)NC(=O)[C@H](CC1CCCCC1)NC(=O)[C@H](CC(=O)O)NC(=O)CN1CCCN2CCN(CCCN(CC(=O)O)CC2)CC1)C(=O)N[C@@H](Cc1c[nH]c2ccccc12)C(=O)N[C@@H](CO)C(=O)O [copper-64 labelled]", "system": "female NMRI nude mice, liver", "conditions": "22 h p.i.", "quantity": "tissue uptake", "value": "3.6 ± 0.4 %ID/g"}
{"SMILES": "[64Cu+2].c1ccc(CNCc2ccc(CN3CCCN4CCNCCCN(CC4)CC3)cc2)nc1", "tested on": "CXCR4", "system": "NOD/SCID mice, U87 xenografts, U87-stb-CXCR4 tumour", "conditions": "60 min post-injection", "quantity": "tissue uptake", "value": "18.9 ± 4.88 %ID/g"}
{"note": "Repeated from above:"}
{"SMILES": "CC(C)C[C@H](NC(=O)[C@H](Cc1ccc(O)cc1)NC(=O)[C@@H](CCCNC(=N)N)NC(=O)[C@@H](CO)NC(=O)[C@H](Cc1ccccc1)NC(=O)[C@H](CC1CCCCC1)NC(=O)[C@H](CC(=O)O)NC(=O)CN1CCCN2CCN(CCCN(CC(=O)O)CC2)CC1)C(=O)N[C@@H](Cc1c[nH]c2ccccc12)C(=O)N[C@@H](CO)C(=O)O [copper-64 labelled]", "system": "female NMRI nude mice, liver", "conditions": "22 h p.i.", "quantity": "tissue uptake", "value": "3.6 ± 0.4 %ID/g"}
